Measurements of several laboratories.
Compare with care: the assays were run in different laboratories. ± marks the error that the study gave.

F[P-](F)(F)(F)(F)F.OC(Cn1cncn1)(Cn1cc(-[c-]2cccc2)nn1)c1ccc(F)cc1F.[Co+3].c1cc[cH-]c1 (racemic) — inhibition (Brugia pahangi; motility, Worminator; adult female; 50 µM, 6 d): 55%
CNCc1ccc2c(c1)N(C(=O)OCc1c(F)c(F)c(F)c(F)c1F)[C@H](CNC(=N)N)[C@H]2NC(=O)C(=O)Nc1ccc(Cl)c(F)c1 — IC80 (Human immunodeficiency virus 1; viral infection, Env pseudovirus; TZM-bl, 6405.v4.c34 clade D): 5.81 µM
CC(=O)NCCN(CCC(=O)NCCN(CCC(=O)NCCN(CCC(=O)NCCC(N)=O)C(=O)[C@@H](N)CCCNC(=N)N)C(=O)[C@@H](N)Cc1ccccc1)C(=O)[C@@H](N)Cc1ccccc1 — binding enthalpy ΔH° (HIV-1 TAR RNA; concentration not given, 25 °C): -7.96 ± 0.406 kcal/mol
CCCOC(=O)N1c2cc(CNC)ccc2[C@H](NC(=O)C(=O)Nc2ccc(Cl)c(F)c2)[C@H]1CNC(=N)N — fold potency increase (HIV-1; viral infection; TZM-bl, multiclade pseudovirus panel; excluding clade A/E recombinants; relative to: BNM-III-170): ~10 fold
C[C@H](Nc1ncnc(N)c1C#N)c1c(-c2ccccc2)[nH]c2c(Cl)cccc2c1=O — inhibition (46 protein kinases; kinase activity; 10 µM): no inhibition
CC(=O)NCCN(CC(=O)NCCN(CC(=O)NCCN(CC(=O)NCCC(N)=O)C(=O)C[C@@H](N)Cc1ccccc1)C(=O)C[C@@H](N)CCCNC(=N)N)C(=O)C[C@@H](N)CCCNC(=N)N — binding entropy term TΔS° (HIV-1 TAR RNA; concentration not given, 25 °C): -0.12 ± 0.263 kcal/mol
